Published values of several laboratories.
Values joined by “and” are separate records of one study, mostly repeats; a detail may differ. ± marks the error that the study gave.
KDM4A: Lysine-specific demethylase 4A (KDM4A, Homo sapiens, UniProt O75164)
Sequence of UniProt O75164 (whole entry, looked up): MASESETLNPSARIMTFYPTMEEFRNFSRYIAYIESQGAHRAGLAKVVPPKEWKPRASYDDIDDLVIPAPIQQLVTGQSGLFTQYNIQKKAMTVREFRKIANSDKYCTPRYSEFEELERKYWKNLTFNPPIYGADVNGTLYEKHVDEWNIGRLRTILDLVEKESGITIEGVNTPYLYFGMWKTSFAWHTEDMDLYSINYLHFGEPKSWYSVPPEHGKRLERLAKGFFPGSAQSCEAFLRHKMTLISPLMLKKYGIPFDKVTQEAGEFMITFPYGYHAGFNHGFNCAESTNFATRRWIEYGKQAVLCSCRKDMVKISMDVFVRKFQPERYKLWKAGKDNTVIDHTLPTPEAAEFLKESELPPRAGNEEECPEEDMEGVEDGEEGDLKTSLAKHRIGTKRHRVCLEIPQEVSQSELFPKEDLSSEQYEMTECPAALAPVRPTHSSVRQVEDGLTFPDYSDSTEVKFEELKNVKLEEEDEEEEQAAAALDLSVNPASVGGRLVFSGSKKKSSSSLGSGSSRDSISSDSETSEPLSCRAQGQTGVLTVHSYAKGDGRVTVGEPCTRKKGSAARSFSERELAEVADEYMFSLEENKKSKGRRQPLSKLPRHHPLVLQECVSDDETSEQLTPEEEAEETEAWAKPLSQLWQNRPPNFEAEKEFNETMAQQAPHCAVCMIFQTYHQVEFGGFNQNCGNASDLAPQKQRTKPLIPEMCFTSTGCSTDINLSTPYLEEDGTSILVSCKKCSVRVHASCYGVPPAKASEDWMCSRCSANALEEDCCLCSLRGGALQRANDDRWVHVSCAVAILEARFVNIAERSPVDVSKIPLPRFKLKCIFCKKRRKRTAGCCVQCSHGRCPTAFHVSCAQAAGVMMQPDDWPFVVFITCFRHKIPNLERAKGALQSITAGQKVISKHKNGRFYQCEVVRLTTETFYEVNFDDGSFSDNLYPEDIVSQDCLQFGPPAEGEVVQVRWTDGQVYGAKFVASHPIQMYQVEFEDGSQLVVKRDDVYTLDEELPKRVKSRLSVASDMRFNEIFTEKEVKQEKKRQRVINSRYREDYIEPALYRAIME
TEC: Tyrosine-protein kinase Tec (TEC, Homo sapiens, UniProt P42680)
Sequence of UniProt P42336 (whole entry, unmodified, looked up): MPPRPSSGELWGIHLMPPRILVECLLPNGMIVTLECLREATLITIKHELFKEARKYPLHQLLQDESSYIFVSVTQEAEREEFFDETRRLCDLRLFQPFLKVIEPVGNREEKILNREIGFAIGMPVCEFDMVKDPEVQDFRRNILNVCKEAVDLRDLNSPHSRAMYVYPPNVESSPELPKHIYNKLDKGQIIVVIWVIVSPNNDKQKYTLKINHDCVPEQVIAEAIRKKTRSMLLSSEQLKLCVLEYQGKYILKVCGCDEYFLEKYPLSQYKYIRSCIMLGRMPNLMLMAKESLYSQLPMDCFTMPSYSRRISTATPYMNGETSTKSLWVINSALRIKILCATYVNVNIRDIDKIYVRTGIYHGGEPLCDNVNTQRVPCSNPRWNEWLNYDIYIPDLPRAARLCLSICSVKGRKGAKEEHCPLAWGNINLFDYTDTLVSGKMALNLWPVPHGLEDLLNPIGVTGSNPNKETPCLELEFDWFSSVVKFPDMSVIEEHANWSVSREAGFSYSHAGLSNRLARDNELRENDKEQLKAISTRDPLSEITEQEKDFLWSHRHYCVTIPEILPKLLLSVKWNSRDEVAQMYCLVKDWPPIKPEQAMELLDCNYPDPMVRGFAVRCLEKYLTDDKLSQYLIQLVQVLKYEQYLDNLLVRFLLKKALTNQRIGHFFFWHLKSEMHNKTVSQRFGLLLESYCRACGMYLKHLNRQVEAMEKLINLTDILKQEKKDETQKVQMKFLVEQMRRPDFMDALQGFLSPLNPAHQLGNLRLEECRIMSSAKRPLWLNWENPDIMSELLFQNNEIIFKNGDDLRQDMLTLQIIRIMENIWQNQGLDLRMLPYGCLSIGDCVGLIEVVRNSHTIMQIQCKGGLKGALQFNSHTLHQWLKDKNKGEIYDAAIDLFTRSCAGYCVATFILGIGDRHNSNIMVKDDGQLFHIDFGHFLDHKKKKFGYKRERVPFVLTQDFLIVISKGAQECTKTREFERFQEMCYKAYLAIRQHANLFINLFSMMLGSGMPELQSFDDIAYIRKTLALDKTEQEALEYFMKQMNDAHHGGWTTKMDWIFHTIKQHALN
Sequence of UniProt P42680 (whole entry, looked up): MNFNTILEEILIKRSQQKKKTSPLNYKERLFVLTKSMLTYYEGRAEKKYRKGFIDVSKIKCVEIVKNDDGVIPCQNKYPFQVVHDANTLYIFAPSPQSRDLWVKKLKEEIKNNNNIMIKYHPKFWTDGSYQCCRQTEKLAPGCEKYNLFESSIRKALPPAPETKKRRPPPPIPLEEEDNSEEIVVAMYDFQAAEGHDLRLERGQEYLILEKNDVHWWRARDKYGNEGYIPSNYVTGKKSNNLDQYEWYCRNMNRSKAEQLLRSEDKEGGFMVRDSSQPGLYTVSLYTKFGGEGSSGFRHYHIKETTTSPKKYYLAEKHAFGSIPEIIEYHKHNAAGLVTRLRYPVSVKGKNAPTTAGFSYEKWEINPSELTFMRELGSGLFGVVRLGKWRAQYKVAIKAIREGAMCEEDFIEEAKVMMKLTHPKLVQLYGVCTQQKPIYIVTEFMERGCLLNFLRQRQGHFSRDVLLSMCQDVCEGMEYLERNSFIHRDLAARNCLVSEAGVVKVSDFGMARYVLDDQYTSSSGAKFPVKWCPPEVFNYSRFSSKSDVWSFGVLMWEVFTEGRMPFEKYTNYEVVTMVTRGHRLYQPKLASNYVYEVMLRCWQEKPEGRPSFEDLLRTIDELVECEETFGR
Sequence of UniProt P97821 (whole entry, looked up): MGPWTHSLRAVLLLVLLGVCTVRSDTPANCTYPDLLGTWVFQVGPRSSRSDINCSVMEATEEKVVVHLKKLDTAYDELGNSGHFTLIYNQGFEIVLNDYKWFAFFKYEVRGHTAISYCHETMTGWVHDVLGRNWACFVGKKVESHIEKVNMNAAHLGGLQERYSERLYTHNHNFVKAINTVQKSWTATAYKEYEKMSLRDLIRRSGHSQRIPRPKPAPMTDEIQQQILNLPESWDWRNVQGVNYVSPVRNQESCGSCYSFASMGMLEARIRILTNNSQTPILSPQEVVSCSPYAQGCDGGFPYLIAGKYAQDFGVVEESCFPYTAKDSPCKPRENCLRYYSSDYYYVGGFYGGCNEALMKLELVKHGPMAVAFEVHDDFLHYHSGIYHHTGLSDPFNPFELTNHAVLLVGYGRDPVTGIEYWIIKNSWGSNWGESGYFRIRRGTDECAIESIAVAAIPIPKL
Sequence of UniProt Q9Z1M0 (whole entry, unmodified, looked up): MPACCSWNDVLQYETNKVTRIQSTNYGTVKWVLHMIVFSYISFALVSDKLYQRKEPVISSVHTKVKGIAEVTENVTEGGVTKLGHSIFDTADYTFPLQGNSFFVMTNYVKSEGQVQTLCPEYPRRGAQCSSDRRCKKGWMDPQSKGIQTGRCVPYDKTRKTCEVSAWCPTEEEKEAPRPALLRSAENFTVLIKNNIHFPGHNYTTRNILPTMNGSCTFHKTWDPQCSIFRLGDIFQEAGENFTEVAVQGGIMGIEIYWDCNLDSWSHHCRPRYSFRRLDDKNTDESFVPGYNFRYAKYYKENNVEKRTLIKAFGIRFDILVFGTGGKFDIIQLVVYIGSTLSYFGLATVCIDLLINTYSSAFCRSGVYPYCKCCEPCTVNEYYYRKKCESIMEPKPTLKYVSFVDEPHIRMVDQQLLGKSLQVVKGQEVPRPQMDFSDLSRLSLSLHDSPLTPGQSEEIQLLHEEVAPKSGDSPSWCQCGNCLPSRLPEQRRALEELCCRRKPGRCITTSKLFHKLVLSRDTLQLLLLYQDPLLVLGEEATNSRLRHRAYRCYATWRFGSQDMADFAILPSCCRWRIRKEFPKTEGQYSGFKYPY
Sequence of UniProt P09619 (whole entry, looked up): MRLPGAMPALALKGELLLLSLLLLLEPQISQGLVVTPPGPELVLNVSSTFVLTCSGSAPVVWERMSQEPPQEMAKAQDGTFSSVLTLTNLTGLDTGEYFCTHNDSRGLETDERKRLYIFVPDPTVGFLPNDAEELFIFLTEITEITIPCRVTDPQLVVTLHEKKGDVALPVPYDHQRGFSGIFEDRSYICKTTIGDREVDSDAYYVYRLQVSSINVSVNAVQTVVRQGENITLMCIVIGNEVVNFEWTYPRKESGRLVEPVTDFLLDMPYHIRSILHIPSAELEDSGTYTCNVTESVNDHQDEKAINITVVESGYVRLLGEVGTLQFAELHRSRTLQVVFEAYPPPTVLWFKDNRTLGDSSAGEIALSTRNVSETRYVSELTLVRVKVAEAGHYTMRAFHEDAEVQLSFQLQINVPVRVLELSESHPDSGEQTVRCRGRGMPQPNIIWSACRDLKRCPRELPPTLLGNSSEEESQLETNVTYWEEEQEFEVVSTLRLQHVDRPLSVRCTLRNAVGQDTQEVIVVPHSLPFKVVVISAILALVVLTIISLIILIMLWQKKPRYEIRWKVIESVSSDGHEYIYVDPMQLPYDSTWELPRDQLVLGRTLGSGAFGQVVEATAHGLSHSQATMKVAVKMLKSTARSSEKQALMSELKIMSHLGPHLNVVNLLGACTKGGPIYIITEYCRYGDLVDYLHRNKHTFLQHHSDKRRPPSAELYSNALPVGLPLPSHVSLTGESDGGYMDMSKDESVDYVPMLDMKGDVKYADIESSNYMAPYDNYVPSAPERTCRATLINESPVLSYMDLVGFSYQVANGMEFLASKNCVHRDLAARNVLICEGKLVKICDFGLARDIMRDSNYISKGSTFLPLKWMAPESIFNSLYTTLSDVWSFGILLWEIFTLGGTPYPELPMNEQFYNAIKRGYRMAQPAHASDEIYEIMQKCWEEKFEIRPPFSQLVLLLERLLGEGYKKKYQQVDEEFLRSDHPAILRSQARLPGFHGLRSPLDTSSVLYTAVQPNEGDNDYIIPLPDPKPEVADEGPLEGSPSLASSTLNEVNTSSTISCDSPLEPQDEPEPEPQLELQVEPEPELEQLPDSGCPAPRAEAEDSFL

| Structure (SMILES) | target | assay | conditions | how to read | remaining activity |
| --- | --- | --- | --- | --- | --- |
| c1cnc2ccc(Nc3nc(NC4CC4)c4nc[nH]c4n3)cc2c1 | PDGFRB (Homo sapiens, UniProt P09619) | kinase activity, inhibitor, SelectScreen kinase profiling | 1 µM | relative to: control | 78% |
| COC(=O)c1cc(C)cc(NS(=O)(=O)c2cc(Cl)cc(Cl)c2O)c1 | malate dehydrogenase | enzyme activity, inhibitor | 40 µM, pH 7.0, 1% DMSO, aggregation counter-screen | – | 103% |
| O=C(NC1CCC1)c1ccc2nc(-c3cccc(NS(=O)(=O)NCCN4CCCCC4)c3)cn2c1 | LRRK2 (Homo sapiens, UniProt Q5S007) | enzyme activity | 10 µM | – | 82% |
| C[C@H]1[C@H](OC(=O)CCC(=O)O)O[C@@H]2O[C@@]3(C)CC[C@H]4[C@H](C)CC[C@@H]1[C@@]24OO3 | Non-structural polyprotein pORF1, RNA-dependent RNA polymerase (Hepatitis E virus genotype 1, UniProt P33424) | polymerase activity, inhibitor, colorimetric | 78 µM | relative to: untreated | 59.5% |
| COc1cc(Nc2ncc3c(n2)-c2ccc(Cl)cc2C(c2c(F)cccc2OC)=NC3)ccc1C(=O)O | SRC | kinase activity | 1 µM | – | 26% |
| Cc1ccc(NC(=O)c2ccc(C)c(C(F)(F)F)c2)cc1C#Cc1nn(C2CCC(O)CC2)c2ncnc(N)c12 (centres unmarked) | Phosphatidylinositol 4,5-bisphosphate 3-kinase catalytic subunit alpha isoform, with p85 alpha (PIK3CA, Homo sapiens, UniProt P42336, E542K) | enzyme activity, inhibitor | 10 µM, p110a(E542K)/p85a)(h human, together with: ATP 10 µM | – | 85% |
| Cc1cc(NC(=O)c2cccc(NC(=O)/C=C/CN(C)C)c2)ccc1Nc1nccc(-c2cccnc2)n1 | MAPK8 (Homo sapiens, UniProt P45983) | enzyme activity, inhibitor | 44.44 µM, 6 h, unit not given, together with: GSH 10 mM pre-incubation | relative to: vehicle | 0.0367 |
| C=CC(=O)N1CCC[C@@H](n2nc(-c3ccc(Oc4ccccc4)cc3)c3c(N)ncnc32)C1 | PDGFRA (Homo sapiens, UniProt P16234) | – | 0.1 µM | – | 515% |
| CNc1ncc2c(/C=C/C(=O)N3CCC(OC)CC3)nn(Cc3cccc(C(F)(F)F)c3)c2n1 | TLK2 (Homo sapiens, UniProt Q86UE8) | kinase activity, inhibitor | 1 µM | relative to: untreated control | 102% |
| O=C(O)c1ccc(Nc2ncc3c(n2)-c2ccc(Cl)cc2C(c2c(F)cccc2F)=NC3)cc1 | EphB3(h) | kinase activity | 1 µM | – | 95% |
| CC(C)CC(C#N)NS(=O)(=O)c1cccc(Cl)c1O (centres unmarked) | malate dehydrogenase | enzyme activity, inhibitor | 200 µM, pH 7.0, 1% DMSO, aggregation counter-screen | – | 72% |
| C=CC[C@@H]1c2ccc(OC)c(OC)c2CN2CCc3cc4c(cc3[C@H]12)OCO4 | P2X purinoceptor 7 (P2rx7, Mus musculus, UniProt Q9Z1M0, A312V) | ATP-evoked current, inhibitor, whole-cell patch clamp | 3 µM, A312V variant | – | 45.4% |
| COc1cc(F)ccc1-c1ncnc(Nc2cccc(C[S@](C)(=N)=O)c2)n1 | HASPIN (Homo sapiens, UniProt Q8TF76) | kinase activity | 10 µM, together with: 10 µM ATP | – | 118% |
| C/C(=N/Nc1ccc([N+](=O)[O-])cc1[N+](=O)[O-])c1ccccc1 | KDM4A | – | concentration not given | – | 100% |
| CC#CC(=O)N1CCC[C@H]1c1nc(-c2ccc(C(=O)Nc3ccccn3)cc2)c2c(N)nccn12 | TEC | kinase activity, inhibitor, HotSpot radiometric | 100 nM, together with: ATP 10 µM | – | 43.5 ± 0.9% |
| CCCCCC/C(C)=N/Nc1ccc([N+](=O)[O-])cc1[N+](=O)[O-] | KDM4A | – | concentration not given | – | 85% |
| C=CC(=O)N1CCC([C@@H]2CCNc3c(C(N)=O)c(-c4ccc(Oc5ccccc5)cc4)nn32)CC1 | LYN (Homo sapiens, UniProt P07948) | kinase activity, inhibitor, HotSpot radiometric | 100 nM, together with: ATP 10 µM | – | 89.9 ± 1.8% |
| CC(=O)Nc1c(C)cc(NS(=O)(=O)c2cc(Cl)cc(Cl)c2O)cc1C | malate dehydrogenase | enzyme activity, inhibitor | 200 µM, pH 7.0, 1% DMSO, aggregation counter-screen | – | 80% |
| Cc1cccc(C)c1C(=O)OCC(=O)[C@H](CCCCN)NC(=O)[C@H](CCCNC(=N)N)NC(=O)OCc1ccccc1 | Ctsc (Mus musculus, UniProt P97821) | inhibitor | 1 µM, room temperature, together with: AMC substrate | – | 72% |
| O=C(Cc1ccc(-c2nn[nH]n2)nc1)Nc1cc(F)cc(Cl)c1O | malate dehydrogenase | enzyme activity, inhibitor | 200 µM, pH 7.0, 1% DMSO, aggregation counter-screen | – | 76% |
| NC/C(=C\F)COc1cccc(Cn2c(=S)[nH]c(=O)c3[nH]cnc32)c1 | Lactoperoxidase (LPO, Bos taurus, UniProt P80025) | H2O2 electrode | 10 µM | relative to: control | 23.5% and 38.9% |
| O=S(=O)(NCc1ccccc1OC(F)(F)F)c1cc(Cl)cc(Cl)c1O | malate dehydrogenase | enzyme activity, inhibitor | 200 µM, pH 7.0, 1% DMSO, aggregation counter-screen | – | 88% |
| CCCOc1ccc(OC)c(F)c1C(=O)c1ccc(C(=O)N[C@@H]2CNC[C@H]2NC(=O)c2ccc3[nH]ncc3c2)cc1 | MET (Homo sapiens, UniProt P08581, Y1230D) | enzyme activity | 10 µM | – | 39% |
| Cn1ncc(S(=O)(=O)NC2CCc3c2ccc(Cl)c3Cl)c1C(=O)O (centres unmarked) | malate dehydrogenase | enzyme activity, inhibitor | 200 µM, pH 7.0, 1% DMSO, aggregation counter-screen | – | 100% |
| COc1ccc(F)cc1C(=O)NCc1ccc(-c2nn([C@@H](C)C(F)(F)F)c(N)c2C(N)=O)cc1 | TEC | kinase activity, inhibitor, HotSpot radiometric | 100 nM, together with: ATP 10 µM | – | 97.2% |
| O=S(=O)(NCCCOc1ccccc1F)c1cc(Cl)cc(Cl)c1O | malate dehydrogenase | enzyme activity, inhibitor | 200 µM, pH 7.0, 1% DMSO, aggregation counter-screen | – | 95% |
| COc1cc(-c2cncc3c2CN(C)Cc2cc(N4CCNCC4)ccc2-3)cc(OC)c1OC | Phosphatidylinositol 4,5-bisphosphate 3-kinase catalytic subunit alpha isoform, with p85 alpha (PIK3CA, Homo sapiens, UniProt P42336, E545K) | kinase activity | 1 µM, p110a(E545K)/p85a)(h human, together with: ATP 10 µM | relative to: DMSO | 108% |
| Cn1ncc(C(=O)O)c1S(=O)(=O)NC1CCOc2ccccc21 (centres unmarked) | malate dehydrogenase | enzyme activity, inhibitor | 200 µM, pH 7.0, 1% DMSO, aggregation counter-screen | – | 133% |
| Cc1cc(Nc2cc(N3CCN(C)CC3)nc(Sc3ccc(NC(=O)C4CC4)cc3)n2)[nH]n1 | EPHA7 (Homo sapiens, UniProt Q15375) | kinase activity, KinaseProfiler | 0.03 µM, species human | relative to: control | 86% |

A few entries again:
| Structure (SMILES) | target | assay | conditions | how to read | remaining activity |
| --- | --- | --- | --- | --- | --- |
| O=S(=O)(NCc1ccccc1OC(F)(F)F)c1cc(Cl)cc(Cl)c1O | malate dehydrogenase | enzyme activity, inhibitor | 200 µM, pH 7.0, 1% DMSO, aggregation counter-screen | – | 88% |
| CCCOc1ccc(OC)c(F)c1C(=O)c1ccc(C(=O)N[C@@H]2CNC[C@H]2NC(=O)c2ccc3[nH]ncc3c2)cc1 | MET (Homo sapiens, UniProt P08581, Y1230D) | enzyme activity | 10 µM | – | 39% |
| Cn1ncc(S(=O)(=O)NC2CCc3c2ccc(Cl)c3Cl)c1C(=O)O (centres unmarked) | malate dehydrogenase | enzyme activity, inhibitor | 200 µM, pH 7.0, 1% DMSO, aggregation counter-screen | – | 100% |
